Results of several laboratories.
Lines come from different studies, so protocols differ.
U2AF2: U2AF2 148-342 (Homo sapiens, UniProt P26368)
UniProt P26368, sequence (whole entry, looked up): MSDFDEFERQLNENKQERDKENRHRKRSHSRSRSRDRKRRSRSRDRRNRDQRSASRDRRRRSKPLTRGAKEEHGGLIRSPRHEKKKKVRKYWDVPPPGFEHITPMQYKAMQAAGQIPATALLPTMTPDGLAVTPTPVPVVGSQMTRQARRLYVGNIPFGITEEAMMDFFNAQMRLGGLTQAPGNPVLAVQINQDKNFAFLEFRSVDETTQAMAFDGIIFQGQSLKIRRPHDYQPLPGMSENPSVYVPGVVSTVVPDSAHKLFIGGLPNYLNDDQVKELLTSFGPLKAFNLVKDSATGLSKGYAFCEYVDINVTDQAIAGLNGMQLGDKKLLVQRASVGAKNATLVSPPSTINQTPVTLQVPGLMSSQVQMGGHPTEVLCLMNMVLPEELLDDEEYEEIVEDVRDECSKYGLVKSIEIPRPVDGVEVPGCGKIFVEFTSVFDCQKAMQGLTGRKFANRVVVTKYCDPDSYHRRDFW
B1: human bleomycin hydrolase; sequence looked up; chain MSSSGLNSEKVAALIQKLNSDPQFVLAQNVGTTHDLLDICLKRATVQRAQHVFQHAVPQEGKPITNQKSSGRCWIFSCLNVMRLPFMKKLNIEEFEFSQSYLFFWDKVERCYFFLSAFVDTAQRKEPEDGRLVQFLLMNPANDGGQWDMLVNIVEKYGVIPKKCFPESYTTEATRRMNDILNHKMREFCIRLRNLVHSGATKGEISATQDVMMEEIFRVVCICLGNPPETFTWEYRDKDKNYQKIGPITPLEFYREHVKPLFNMEDKICLVNDPRPQHKYNKLYTVEYLSNMVGGRKTLYNNQPIDFLKKMVAASIKDGEAVWFGCDVGKHFNSKLGLSDMNLYDHELVFGVSLKNMNKAERLTFGESLMTHAMTFTAVSEKDDQDGAFTKWRVENSWGEDHGHKGYLCMTDEWFSEYVYEVVVDRKHVPEEVLAVLEQEPIILPAWDPMGALAE
B2: NINJ1 x (Homo sapiens, UniProt Q92982); sequence looked up; chain MDSGTEEYELNGGLPPGTPGSPDASPARWGWRHGPINVNHYASKKSAAESMLDIALLMANASQLKAVVEQGPSFAYYTTLVTLISISLVLQIGVGVLLIFLVKYDLNNPAKHAKLDFLNNLATGLVFIIVVVNIFITAFGVQKPLMDMAPQQ
B3: mgtA 32-898 (Escherichia coli, UniProt P0ABB8); sequence looked up; chain TVVPPSLSAHCLKMAVMPEEELWKTFDTHPEGLNQAEVESAREQHGENKLPAQQPSPWWVHLWVCYRNPFNILLTILGAISYATEDLFAAGVIALMVAISTLLNFIQEARSTKAADALKAMVSNTATVLRVINDKGENGWLEIPIDQLVPGDIIKLAAGDMIPADLRILQARDLFVAQASLTGESLPVEKAATTRQPEHSNPLECDTLCFMGTTVVSGTAQAMVIATGANTWFGQLAGRVSEQESEPNAFQQGISRVSMLLIRFMLVMAPVVLLINGYTKGDWWEAALFALSVAVGLTPEMLPMIVTSTLARGAVKLSKQKVIVKHLDAIQNFGAMDILCTDKTGTLTQDKIVLENHTDISGKTSERVLHSAWLNSHYQTGLKNLLDTAVLEGTDEESARSLASRWQKIDEIPFDFERRRMSVVVAENTEHHQLVCKGALQEILNVCSQVRHNGEIVPLDDIMLRKIKRVTDTLNRQGLRVVAVATKYLPAREGDYQRADESDLILEGYIAFLDPPKETTAPALKALKASGITVKILTGDSELVAAKVCHEVGLDAGEVVIGSDIETLSDDELANLAQRTTLFARLTPMHKERIVTLLKREGHVVGFMGDGINDAPALRAADIGISVDGAVDIAREAADIILLEKSLMVLEEGVIEGRRTFANMLKYIKMTASSNFGNVFSVLVASAFLPFLPMLPLHLLIQNLLYDVSQVAIPFDNVDDEQIQKPQRWNPADLGRFMIFFGPISSIFDILTFCLMWWVFHANTPETQTLFQSGWFVVGLLSQTLIVHMIRTRRVPFIQSCASWPLMIMTVIVMIVGIALPFSPLASYLQLQALPLSYFPWLVAILAGYMTLTQLVKGFYSRRYGWQ
B4: TARDBP 262-414 (Homo sapiens, UniProt Q13148); chain PKHNSNRQLERSGRFGGNPGGFGNQGGFGNSRGGGAGLGNNQGSNMGGGMNFGAFSINPAMMAAAQAALQSSWGMMGMLASQQNQSGPSGNNQNQGNMQREPNQAFGSGNNSYSGSNSGAAIGWGSASNAGSGSGFNGGFGSSMDSKSSGWGM
B5: Transcriptional regulator (NtrC family) 365-442 (Aquifex aeolicus, UniProt O66551); sequence looked up; chain EVIKPEDLGLKEKSWRDLSYLLKIKELKEAKKEFEKIFIEEKLREYDYDLKRTAEEIGIDLSNLYRKIKSLNIRVKSS
B6: CRYAA R21Q (Homo sapiens, UniProt P02489); sequence looked up; chain MDVTIQHPWFKRTLGPFYPSQLFDQFFGEGLFEYDLLPFLSSTISPYYRQSLFRTVLDSGISEVRSDRDKFVIFLDVKHFSPEDLTVKVQDDFVEIHGKHNERQDDHGYISREFHRRYRLPSNVDQSALSCSLSADGMLTFCGPKIQTGLDATHAERAIPVSREEKPTSAPSS
B7: cdc15 19-312 (Schizosaccharomyces pombe, UniProt Q09822); sequence looked up; chain SVKFRDNFWGSEDAGMDALMSRTKSSLSVLESIDEFYAKRASIEREYASKLQELAASSADIPEVGSTLNNILSMRTETGSMAKAHEEVSQQINTELRNKIREYIDQTEQQKVVAANAIEELYQKKTALEIDLSEKKDAYEYSCNKLNSYMRQTKKMTGRELDKYNLKIRQAALAVKKMDAEYRETNELLLTVTREWIDRWTEVCDAFQHIEEYRLEFLKTNMWAYANIISTACVKDDESCEKIRLTLENTNIDEDITQMIQNEGTGTTIPPLPEFNDYFKENGLNYDIDQLISK
B8: Nlrp3 K970E/Q1001R/F1029A (Mus musculus, UniProt Q8R4B8); sequence looked up; chain MTSVRCKLAQYLEDLEDVDLKKFKMHLEDYPPEKGCIPVPRGQMEKADHLDLATLMIDFNGEEKAWAMAVWIFAAINRRDLWEKAKKDQPEWNDTCTSHSSMVCQEDSLEEEWMGLLGYLSRISICKKKKDYCKMYRRHVRSRFYSIKDRNARLGESVDLNSRYTQLQLVKEHPSKQEREHELLTIGRTKMRDSPMSSLKLELLFEPEDGHSEPVHTVVFQGAAGIGKTILARKIMLDWALGKLFKDKFDYLFFIHCREVSLRTPRSLADLIVSCWPDPNPPVCKILRKPSRILFLMDGFDELQGAFDEHIGEVCTDWQKAVRGDILLSSLIRKKLLPKASLLITTRPVALEKLQHLLDHPRHVEILGFSEAKRKEYFFKYFSNELQAREAFRLIQENEVLFTMCFIPLVCWIVCTGLKQQMETGKSLAQTSKTTTAVYVFFLSSLLQSRGGIEEHLFSDYLQGLCSLAADGIWNQKILFEECDLRKHGLQKTDVSAFLRMNVFQKEVDCERFYSFSHMTFQEFFAAMYYLLEEEAEGETVRKGPGGCSDLLNRDVKVLLENYGKFEKGYLIFVVRFLFGLVNQERTSYLEKKLSCKISQQVRLELLKWIEVKAKAKKLQWQPSQLELFYCLYEMQEEDFVQSAMDHFPKIEINLSTRMDHVVSSFCIKNCHRVKTLSLGFFHNSPKEEEEERRGGRPLDQVQCVFPDTHVACSSRLVNCCLTSSFCRGLFSSLSTNRSLTELDLSDNTLGDPGMRVLCEALQHPGCNIQRLWLGRCGLSHQCCFDISSVLSSSQKLVELDLSDNALGDFGIRLLCVGLKHLLCNLQKLWLVSCCLTSACCQDLALVLSSNHSLTRLYIGENALGDSGVQVLCEKMKDPQCNLQKLGLVNSGLTSICCSALTSVLKTNQNFTHLYLRSNALGDTGLRLLCEGLLHPDCKLQMLELDNCSLTSHSCWNLSTILTHNHSLRELNLGNNDLGDLCVVTLCEVLKQQGCLLQSLRLGEMYLNRETKRALEALQEEKPELTIVAEISW
B9: TNKS 1026-1092 (Homo sapiens, UniProt O95271); sequence looked up; chain GLDMNISQFLKSLGLEHLRDIFETEQITLDVLADMGHEELKEIGINAYGHRHKLIKGVERLLGGQQG
B10: IL2 mature E63A (Bos taurus, UniProt P05016); sequence looked up; chain APTSSSTGNTMKEVKSLLLDLQLLLEKVKNPENLKLSRMHTFDFYVPKVNATELKHLKCLLEALKLLEEVLNLAPSKNLNPREIKDSMDNIKRIVLELQGSETRFTCEYDDATVNAVEFLNKWITFCQSIYSTMT
B11: SPOP R70L (Homo sapiens, UniProt O43791); sequence looked up; chain MSRVPSPPPPAEMSSGPVAESWCYTQIKVVKFSYMWTINNFSFCREEMGEVIKSSTFSSGANDKLKWCLLVNPKGLDEESKDYLSLYLLLVSCPKSEVRAKFKFSILNAKGEETKAMESQRAYRFVQGKDWGFKKFIRRDFLLDEANGLLPDDKLTLFCEVSVVQDSVNISGQNTMNMVKVPECRLADELGGLWENSRFTDCCLCVAGQEFQAHKAILAARSPVFSAMFEHEMEESKKNRVEINDVEPEVFKEMMCFIYTGKAPNLDKMADDLLAAADKYALERLKVMCEDALCSNLSVENAAEILILADLHSADQLKTQAVDFINYHASDVLETSGWKSMVVSHPHLVAEAYRSLASAQCPFLGPPRKRLKQS
B12: cooS 1-639 (Rhodospirillum rubrum, UniProt P31896); chain MTHHDCAHCSSDACATEMLNLAEANSIETAWHRYEKQQPQCGFGSAGLCCRICLKGPCRIDPFGEGPKYGVCGADRDTIVARHLVRMIAAGTAAHSEHGRHIALAMQHISQGELHDYSIRDEAKLYAIAKTLGVATEGRGLLAIVGDLAAITLGDFQNQDYDKPCAWLAASLTPRRVKRLGDLGLLPHNIDASVAQTMSRTHVGCDADPTNLILGGLRVAMADLDGSMLATELSDALFGTPQPVVSAANLGVMKRGAVNIAVNGHNPMLSDIICDVAADLRDEAIAAGAAEGINIIGICCTGHEVMMRHGVPLATNYLSQELPILTGALEAMVVDVQCIMPSLPRIAECFHTQIITTDKHNKISGATHVPFDEHKAVETAKTIIRMAIAAFGRRDPNRVAIPAFKQKSIVGFSAEAVVAALAKVNADDPLKPLVDNVVNGNIQGIVLFVGCNTTKVQQDSAYVDLAKSLAKRNVLVLATGCAAGAFAKAGLMTSEATTQYAGEGLKGVLSAIGTAAGLGGPLPLVMHMGSCVDNSRAVALATALANKLGVDLSDLPLVASAPECMSEKALAIGSWAVTIGLPTHVGSVPPVIGSQIVTKLVTETAKDLVGGYFIVDTDPKSAGDKLYAAIQERRAGLGL
B13: dlg1 1-97 I34G (Drosophila melanogaster, UniProt P31007); sequence looked up; chain MPVKKQEAHRALELLEDYHARLSEPQDRALRIAGERVIRIFKSRLFQALLDIQEFYELTLLDDSKSIQQKTAETLQIATKWEKDGQAVKIADFIKSS
UniProt D3KZG3, sequence (whole entry, looked up): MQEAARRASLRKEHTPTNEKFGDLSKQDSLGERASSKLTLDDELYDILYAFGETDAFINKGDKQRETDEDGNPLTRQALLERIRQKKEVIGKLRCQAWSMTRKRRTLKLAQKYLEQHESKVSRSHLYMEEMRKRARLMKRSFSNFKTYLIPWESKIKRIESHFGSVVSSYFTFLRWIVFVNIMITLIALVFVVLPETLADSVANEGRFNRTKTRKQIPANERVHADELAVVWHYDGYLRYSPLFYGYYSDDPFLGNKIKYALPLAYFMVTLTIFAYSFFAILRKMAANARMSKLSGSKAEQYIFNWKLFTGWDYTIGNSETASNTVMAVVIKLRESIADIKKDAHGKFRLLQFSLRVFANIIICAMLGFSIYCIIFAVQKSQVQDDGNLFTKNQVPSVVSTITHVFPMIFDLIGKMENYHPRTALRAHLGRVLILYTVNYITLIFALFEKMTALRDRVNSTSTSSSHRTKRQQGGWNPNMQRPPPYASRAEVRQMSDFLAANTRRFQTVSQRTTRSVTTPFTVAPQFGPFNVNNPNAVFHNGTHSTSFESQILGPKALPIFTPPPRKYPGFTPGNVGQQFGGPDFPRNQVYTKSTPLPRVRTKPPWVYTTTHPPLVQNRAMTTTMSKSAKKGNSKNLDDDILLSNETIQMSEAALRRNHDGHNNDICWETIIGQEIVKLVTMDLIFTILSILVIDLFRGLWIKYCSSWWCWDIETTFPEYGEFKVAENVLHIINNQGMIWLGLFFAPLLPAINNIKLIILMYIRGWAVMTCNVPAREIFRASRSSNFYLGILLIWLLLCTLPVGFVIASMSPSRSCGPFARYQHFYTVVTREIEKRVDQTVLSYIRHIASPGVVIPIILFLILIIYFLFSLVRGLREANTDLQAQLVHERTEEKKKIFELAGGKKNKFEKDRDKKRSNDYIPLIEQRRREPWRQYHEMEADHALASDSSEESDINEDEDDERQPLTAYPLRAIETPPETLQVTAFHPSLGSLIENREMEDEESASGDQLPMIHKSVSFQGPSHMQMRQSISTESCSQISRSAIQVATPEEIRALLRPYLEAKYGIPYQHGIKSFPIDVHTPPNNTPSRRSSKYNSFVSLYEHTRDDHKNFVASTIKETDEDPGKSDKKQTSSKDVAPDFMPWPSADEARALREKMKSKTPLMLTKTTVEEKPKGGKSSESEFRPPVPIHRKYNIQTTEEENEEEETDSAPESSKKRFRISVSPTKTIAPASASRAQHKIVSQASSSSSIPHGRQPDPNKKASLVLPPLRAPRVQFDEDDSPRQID

B1 (human bleomycin hydrolase) — log2 fold change (CYB5R4 knockout human cells; PP4 interaction, 3xFLAG-PP4C IP-MS; concentration not given; reference: CYB5R4 KO over parental): -1.21
UAUUUCUUU (ssRNA) — Kd (U2AF2; sequencing of bound RNA; RNA; motif only): 0.71 µM
B2 (NINJ1 x) — binding (itself; negative-stain EM): binds
B3 (mgtA 32-898) — binding (itself; native gel or EMSA): binds
B4 (TARDBP 262-414) — binding (itself; cross-linking): binds
YGQASQSYSGYGQTT (TAF15 28-42 (Homo sapiens, UniProt Q92804); N-acetyl/C-amide; sequence looked up) — binding (itself; ThT fluorescence; peptide; peptide fibrils): binds
tmc-1 (Caenorhabditis elegans, UniProt D3KZG3) — binding (itself; SEC): binds
B5 (Transcriptional regulator) — binding (itself; X-ray crystallography): binds
CAUGUUUAG (ssRNA) — Kd (U2AF2; sequencing of bound RNA; RNA; motif only): 16 µM
B6 (CRYAA R21Q) — binding (itself; SEC-MALS; 1 hour h, pH 7.4, 37 °C): binds
B7 (cdc15 19-312) — binding (itself; negative stain electron microscopy): binds
B8 (Nlrp3 K970E/Q1001R/F1029A) — binding (itself; sucrose gradient sedimentation, negative-stain EM): binds
B9 (TNKS 1026-1092) — binding (itself; crystal structure): binds
human Ku70 — log2 fold change (CYB5R4 knockout human cells; PP4 interaction, 3xFLAG-PP4C IP-MS; concentration not given; reference: CYB5R4 KO over parental): -0.56
IMPDH1 S477D (Homo sapiens) (sequence not shown) — binding (itself; negative stain electron microscopy): binds
B10 (IL2 mature E63A) — binding (itself; SDS-PAGE): binds
B11 (SPOP R70L) — binding (itself; negative-stain TEM): binds
B12 (cooS 1-639) — binding (itself; crystal structure): binds
B13 (dlg1 1-97 I34G) — binding (itself; SEC): binds

For quick reference, copied from above:
human Ku70 — log2 fold change (CYB5R4 knockout human cells; PP4 interaction, 3xFLAG-PP4C IP-MS; concentration not given; reference: CYB5R4 KO over parental): -0.56
IMPDH1 S477D (Homo sapiens) (sequence not shown) — binding (itself; negative stain electron microscopy): binds
B10 (IL2 mature E63A) — binding (itself; SDS-PAGE): binds
